Results pooled from the literature.
A part holds a random share of what one study measured. Numbers after ± are the reported error.

Sample 1
Organism: SARS-CoV-2 Wuhan spike VSV pseudovirus
Observed: pseudovirus entry
Tested at: 10 µM
O=C(Nc1ccccc1)c1nc(S(=O)(=O)Cc2ccc(F)cc2)ncc1Cl has an inhibition of 56%.
For CCS(=O)(=O)N1C[C@@H](COC)[C@H](c2ccncc2)C1, the inhibition was 78%.
For Clc1cc2c(c3ncccc13)OCN(Cc1cccnc1)C2, the inhibition was 62%.
The inhibition of CCC(CC)C(=O)N1CCN(c2nc3ccccc3nc2C(F)(F)F)CC1 is reported as 74%.
CCCS(=O)(=O)c1ncc(Cl)c(C(=O)Nc2ccc(OCC)cc2)n1 has an inhibition of 100%.
With CC(C)CN1CC(C(=O)NCCS(=O)(=O)N2CCCC2)CC1=O (stereo not shown) the inhibition was 95%.
The inhibition of CCc1cc2c(N3CCN(c4cccc(C)c4)C(C)C3)ncnc2s1 (stereo not shown) is reported as 67%.
For COCCCN1CCC(NC(=O)c2cc(Cl)c(N)c3c2OCC3)CC1, the inhibition was 96%.

Other studies, line by line
rep nsp12 RdRp: Replicase polyprotein 1ab, nsp12 RdRp (rep, Severe acute respiratory syndrome coronavirus 2, UniProt P0DTD1)
rep papain-like protease: Replicase polyprotein 1ab, papain-like protease (rep, Severe acute respiratory syndrome coronavirus 2, UniProt P0DTD1)
rep nsp14: Replicase polyprotein 1ab, nsp14 (rep, Severe acute respiratory syndrome coronavirus 2, UniProt P0DTD1)
For c1ccc2c(Oc3nc(Nc4ccc(N5CCOCC5)cc4)c4ncn(C5CCCCC5)c4n3)cccc2c1, the BLI response was 0.01 nm (rep nsp12 RdRp; binding, biolayer interferometry; concentration not given).
The activity of CN1CCc2nc(C(=O)N[C@@H]3C[C@@H](C(=O)N(C)C)CC[C@@H]3NC(=O)C(=O)Nc3ccc(Cl)cn3)sc2C1.Cc1ccc(S(=O)(=O)O)cc1.O is reported as 21.6% (rep papain-like protease; concentration not given, C111S mutant; relative to: positive control).
The ΔTm of C[S+](CC[C@H](N)C(=O)[O-])C[C@H]1O[C@@H](n2cnc3c(N)ncnc32)[C@H](O)[C@@H]1O (stereo partly shown) is reported as 0.3 °C (rep nsp14; thermal shift; 20 µM).
Cc1ccc(C(=O)Nc2cccc(C(F)(F)F)c2)cc1Nc1nc(-c2cccnc2)nc2c1cnn2C gave a BLI response of -0.02 nm (rep nsp12 RdRp; binding, biolayer interferometry; concentration not given).
CCC(CC)[C@H](NC(C)=O)[C@@H]1[C@H](O)[C@@H](C(=O)O)C[C@H]1N=C(N)N gave an IC50 of 0.0015 ± 0.0003 µM (neuraminidase (Influenza B virus, UniProt C0LT34, G407S)).
O=C(NC1CCN(c2ncnc3[nH]cnc23)CC1)c1cccc(S(=O)(=O)N2CCCC2)c1 gave an inhibition of 2.15% (rep nsp14; NSP14 enzyme activity, inhibitor; 0.04883 µM).
For CCC[C@H](N[C@H]1CCc2cc(F)cc(F)c2C1)C(=O)Nc1cn(C(C)(C)CNCC(C)(C)C)cn1, the activity was 18.2% (rep papain-like protease; concentration not given, C111S mutant; relative to: positive control).
N#C[C@@]1(n2ccc(N)nc2=O)O[C@H](CO)[C@@H](O)[C@H]1O gave an EC50 of 0.2 ± 0.2 µM (SARS-CoV-2; viral replication; Calu-3, Beta).

For quick reference, copied from above (sample 1):
For Clc1cc2c(c3ncccc13)OCN(Cc1cccnc1)C2, the inhibition was 62%.
